Measurements from different studies.
A part holds a random share of what one study measured. Changes are numbered by the printed parent chain.

Series 1
Target: RING finger protein unkempt homolog, zinc fingers 1-6, GST-SBP tag (UNK, Homo sapiens, UniProt Q9C0B0, residues 30-357)
Method: RNA Bind-n-Seq
Form: RNA
Sample: in vitro
Concentration: not given
Setting: RNA with constant flanks, human and mouse sites, ends assumed
Baseline: input RNA pool
Reading: higher = stronger binding
Residues (chain): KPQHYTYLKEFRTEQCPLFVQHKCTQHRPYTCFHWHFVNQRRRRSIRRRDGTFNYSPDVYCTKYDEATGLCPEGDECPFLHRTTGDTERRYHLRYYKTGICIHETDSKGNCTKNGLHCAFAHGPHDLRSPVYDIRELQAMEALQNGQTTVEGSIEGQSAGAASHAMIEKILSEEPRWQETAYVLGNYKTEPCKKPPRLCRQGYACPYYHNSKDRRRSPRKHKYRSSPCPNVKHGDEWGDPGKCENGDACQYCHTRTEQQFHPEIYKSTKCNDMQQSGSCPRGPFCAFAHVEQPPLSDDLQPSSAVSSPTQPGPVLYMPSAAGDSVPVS
`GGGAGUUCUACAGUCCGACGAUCGAAAAACUGUUUGCUGAAGACACAGAGGCAAAGAAUCCAUUUUCAACUCAGGACACUGAUUUAGAUUUGGAGAUGCUGGCUCCCUAUAUCCCAAUGGAUGAUGAUUUCCAGUUACGUUCCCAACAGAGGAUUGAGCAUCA` has a bound/input enrichment of 0.2 ratio.
For `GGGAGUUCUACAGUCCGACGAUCUUUAUGACAUGUCCCUUUAUAUUGAAUGCUGUCACAAAGAAUCUGGGAUUAUAUUAUGACAAUAGAAUUCGCAUGUACAGUGAAAGAAGAAUCACUGUUCUUUACAGCCUAGUUCAAGGACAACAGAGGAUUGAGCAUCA`, the bound/input enrichment was 0.439 ratio.
For `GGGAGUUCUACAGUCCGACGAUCACACAACACAAACAUAAGGAGAGACUUAGUGCUUCACCUCAGGAGGUAGGAAAGCCAUAUUUAGAGUCUUUUCAGCCCAAUUUACAUAUUACAAAAGAUGCUGCAUCUAAUGAAAUUCCACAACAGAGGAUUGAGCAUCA`, the bound/input enrichment was 1.14 ratio.
`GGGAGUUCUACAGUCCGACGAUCGUUGUUUUUGUUUUGAGACAGGGCCUCACUGUGCGGCCCUGGCUGGCCUGGAACUUGCUAUAUAGACCAGGCUAACCUGGAACUCAGCGAACUGUCUGCCCAGCCUUCUUUGGUUUUAUUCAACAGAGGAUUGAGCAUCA` gave a bound/input enrichment of 0.0895 ratio.
`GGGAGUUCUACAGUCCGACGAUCUCUCCUGAAGAACAUCUAGAAGAAAUGAUGAAGAUGAUGUCGCCCAAUAAGCUGCACACUAACUUUCACAUUCCUAAAAAAGGCCCACCUGCCAAGAAACCAGGGAAGCACAGUGACAAGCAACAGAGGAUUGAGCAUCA` has a bound/input enrichment of 0.265 ratio.
With `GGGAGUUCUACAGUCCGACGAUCAACAGUGAGGAGAUGUGGAAAACCUAUCGUCGUUAUAGUGACUUCCAUGACUUCCACAUGAGAAUCACUGAACAGUUUGAAAGUCUCUCAAGCAUAUUGAAACUUCCUGGAAAAAAGACUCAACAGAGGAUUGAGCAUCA` the bound/input enrichment was 0.186 ratio.
The bound/input enrichment of `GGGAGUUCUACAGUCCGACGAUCUUGGGACAUGGGGCUGUUUUCUUCUCAGUUUGACAACCUGGAGCCCUCUCUCUCUUGGUCAUCCUUUUAGAAGCCAAGAGAAAGGUGGGUUGGGAAGCCUCUCACUUCCCUUAGGCUCAGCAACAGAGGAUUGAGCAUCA` is reported as 0.202 ratio.
For `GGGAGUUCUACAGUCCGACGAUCUUUUUUUUUCCCCAAAGUGUAGUUAUGUUUUCACUAUUGCUGCUUCUAUAGAGGGCAUUGUGAUAGAGAGUUACAGAUGAAACAUUAAAUGCCACAGUGAGUAGAAAUAAUUACUACAAACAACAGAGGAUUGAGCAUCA`, the bound/input enrichment was 0.415 ratio.

Series 2
Target: CCNB3, cyclin fold, Cln2 fusion (human)
Method: yeast growth competition, sequencing
Sample: yeast
Setting: strong parent motif
Baseline: not given
Reading: higher = stronger binding
Starting sequence: RBL2 docking peptide (human); STTRRRLFVENDS
`STTRRRLFVENRS [D12R]` — result for “normalised enrichment score”: 0.964.
`STTHRRLFVENDS [R4H]` — result for “normalised enrichment score”: 0.593.
`STTRCRLFVENDS [R5C]` — result for “normalised enrichment score”: 0.432.
`STRRRRLFVENDS [T3R]`: “normalised enrichment score” -0.0304.
For `STTRRHLFVENDS [R6H]`, “normalised enrichment score” read -0.164.
`STTRRRLFVENDY [S13Y]`: “normalised enrichment score” 0.863.
`STTRRRLLVENDS [F8L]` — result for “normalised enrichment score”: 0.148.
`STTRRRLFVENFS [D12F]` — result for “normalised enrichment score”: 0.729.
For `STTRRRLFVCNDS [E10C]`, “normalised enrichment score” read 0.853.
`STTRRRLFVECDS [N11C]` — result for “normalised enrichment score”: 1.15.
`STTRRRLFVLNDS [E10L]`: “normalised enrichment score” 0.0517.
Under “normalised enrichment score”, `HTTRRRLFVENDS [S1H]` is recorded as 1.26.
`STTRRRLFVENDR [S13R]`: “normalised enrichment score” 0.985.
`STTRRRLFVEADS [N11A]`: “normalised enrichment score” 0.51.
Under “normalised enrichment score”, `ETTRRRLFVENDS [S1E]` is recorded as 0.402.

Series 3
Target: Interferon regulatory factor 5, full length, phosphomimetic (IRF5, Homo sapiens, UniProt Q13568-2, residues 1-514, K96S/S451D/S453D/S456D/S462D)
Method: protein-binding microarray
Form: double-stranded DNA, one strand shown
Sample: in vitro
Concentration: 250 nM
Setting: 60-bp whole probe
With: salmon DNA 0.4 mg/ml
Baseline: random background probes
Reading: higher = stronger binding
All sequences stand within: GCCTAGCAC … GTCTTGATTCGCTTGACGCTGCTG
`TCACCTCTGGGCTGTTTGACTGTGCTA` gave a log fluorescence of -0.0877 z-score.
The log fluorescence of `GACGGTCTCGGTCTCGGGCCGTGCTAG` is reported as 0.0951 z-score.
`GACGGTATCCTTATCCTCACGTGCTAG` has a log fluorescence of 0.184 z-score.
`TTAGTTTTCATTATTGTGTCGTGCTAG` has a log fluorescence of 3.07 z-score.
`GACGGTTTCGATCTCGGGACGTGCTAG` has a log fluorescence of 7.97 z-score.
`GACGGTTTCGGATTTCGGGACGTGCTA` has a log fluorescence of 5.94 z-score.
For `CTATTTTTCCCCTGCACTCAGTGCTAG`, the log fluorescence was 0.884 z-score.
`GACGAGCTGAGTTTCGAGACGTGCTAG` has a log fluorescence of 4.43 z-score.
`GACGGACTGGATATCGGGACGTGCTAG` gave a log fluorescence of -0.0296 z-score.
The log fluorescence of `TCACCTTTCTCTCTGTGACTGTGCTAG` is reported as 1.4 z-score.
With `GACGGTTTCGGTTCCGGAACGTGCTAG` the log fluorescence was 9.96 z-score.
For `TGAGGTTTCGACTATCGGTTAGTGCTA`, the log fluorescence was 9.01 z-score.
With `TCAGTTTCCAAATTGTCACTGTGCTAG` the log fluorescence was 1.24 z-score.
`GACGATATCGGGACTGGTGACGTGCTA` gave a log fluorescence of 0.694 z-score.
The log fluorescence of `ATTCCTTTGCCTCCAGGCGCGTGCTAG` is reported as -0.0152 z-score.
For `TTAGCTATCGGTTTCGGTTAGTGCTAG`, the log fluorescence was 11.3 z-score.
With `TGAGATATCAGTCTCGATTAGTGCTAG` the log fluorescence was 1.34 z-score.
The log fluorescence of `GACCGACTGCTTATCCTGACGTGCTAG` is reported as -0.15 z-score.
With `TCATCATTATTGTCTCCCACTGTGCTA` the log fluorescence was 0.837 z-score.

Series 4
Target: Histone acetyltransferase KAT6A, winged helix 1, GST fusion (KAT6A, Homo sapiens, UniProt Q92794, residues 1-85)
Method: protein binding microarray
Form: double-stranded DNA, one strand shown
Sample: in vitro
Concentration: not given
Setting: 8-mer, flanks averaged, mean of 2 arrays, mostly near background
Baseline: not given
Reading: higher = stronger binding
Residues (chain): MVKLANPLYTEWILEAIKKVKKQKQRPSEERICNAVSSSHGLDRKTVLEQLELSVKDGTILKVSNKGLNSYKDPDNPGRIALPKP
`CAACGCCA` gave an E-score of -0.101.
For `CCTACGCC`, the E-score was 0.133.
For `CCATGCGC`, the E-score was 0.231.
For `TAGGTAAA`, the E-score was -0.169.
`CTTGCTCC` gave an E-score of -0.246.
For `GCCGATAC`, the E-score was 0.351.
The E-score of `ACACCTCC` is reported as -0.0098.
For `ACAACACG`, the E-score was -0.00288.
With `GCCGATAA` the E-score was 0.189.
With `CAGAAAGA` the E-score was -0.192.
With `CCCTCGAA` the E-score was -0.0842.
With `GCTGTTAA` the E-score was 0.0416.
For `CACACCCG`, the E-score was 0.124.
`ATTGGGTA` has an E-score of -0.258.
`CCAAGGTC` gave an E-score of -0.146.
The E-score of `CCTAGCCC` is reported as -0.0813.
`ATGCGAGG` has an E-score of 0.00153.
The E-score of `GGATAAGA` is reported as 0.00175.
`GGGAGAAA` has an E-score of -0.163.
`AGCAAAAT` has an E-score of -0.103.
For `CGCGATAA`, the E-score was 0.134.
The E-score of `CTAACAAA` is reported as -0.166.
`CAGGCATG` gave an E-score of -0.0245.
`ATTACCTC` has an E-score of -0.1.
`ACCTAGAT` has an E-score of -0.148.

For quick reference, copied from above (series 4):
For `ACAACACG`, the E-score was -0.00288.
With `GCCGATAA` the E-score was 0.189.
With `CAGAAAGA` the E-score was -0.192.
With `CCCTCGAA` the E-score was -0.0842.
With `GCTGTTAA` the E-score was 0.0416.
